Measured values pooled from the literature.
Parts stem from different laboratories: compare values within a part only. Substitutions count along the parent as printed.

Set 1
Target: CCND1, cyclin fold, Cln2 fusion (human)
Technique: yeast growth competition, sequencing
Sample: yeast
Setting: weak parent motif
Baseline: not given
Reading: higher = stronger binding
Parent: viral docking peptide; PTARRRLLHDLDT; partner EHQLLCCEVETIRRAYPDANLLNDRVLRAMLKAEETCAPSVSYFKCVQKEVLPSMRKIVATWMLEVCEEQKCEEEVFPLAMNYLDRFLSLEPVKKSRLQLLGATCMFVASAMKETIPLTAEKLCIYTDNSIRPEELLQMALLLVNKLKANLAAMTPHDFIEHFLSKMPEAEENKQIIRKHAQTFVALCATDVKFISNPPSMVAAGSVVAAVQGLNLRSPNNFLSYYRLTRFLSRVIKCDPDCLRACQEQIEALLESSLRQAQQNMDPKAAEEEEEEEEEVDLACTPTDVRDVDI
Under “normalised enrichment score”, `R4A` is recorded as -0.678.
For `R5A`, “normalised enrichment score” read -0.301.
Under “normalised enrichment score”, `R5A R6A L7A L8A` is recorded as -0.125.
`R5K L8F`: “normalised enrichment score” 0.0634.
For `P1A`, “normalised enrichment score” read 0.0299.
Under “normalised enrichment score”, `L7A` is recorded as -0.114.
For `R5K`, “normalised enrichment score” read -0.246.
`D10A`: “normalised enrichment score” -0.485.
`L8F` — result for “normalised enrichment score”: 1.57.
`L11A`: “normalised enrichment score” -0.0437.

Set 2
Target: Interferon regulatory factor 3, full length, phosphomimetic (IRF3, Homo sapiens, UniProt Q14653, residues 1-427, S386D/S396D/S398D/S402D/T404D/S405D)
Technique: protein-binding microarray
Molecule type: double-stranded DNA, one strand shown
Sample: in vitro
Concentration: 2540 nM top
Setting: 60-bp whole probe
Added: salmon DNA 0.4 mg/ml
Baseline: random background probes
Reading: higher = stronger binding
All sequences stand within: GCCTAGCAC … GTCTTGATTCGCTTGACGCTGCTG
Construct (chain): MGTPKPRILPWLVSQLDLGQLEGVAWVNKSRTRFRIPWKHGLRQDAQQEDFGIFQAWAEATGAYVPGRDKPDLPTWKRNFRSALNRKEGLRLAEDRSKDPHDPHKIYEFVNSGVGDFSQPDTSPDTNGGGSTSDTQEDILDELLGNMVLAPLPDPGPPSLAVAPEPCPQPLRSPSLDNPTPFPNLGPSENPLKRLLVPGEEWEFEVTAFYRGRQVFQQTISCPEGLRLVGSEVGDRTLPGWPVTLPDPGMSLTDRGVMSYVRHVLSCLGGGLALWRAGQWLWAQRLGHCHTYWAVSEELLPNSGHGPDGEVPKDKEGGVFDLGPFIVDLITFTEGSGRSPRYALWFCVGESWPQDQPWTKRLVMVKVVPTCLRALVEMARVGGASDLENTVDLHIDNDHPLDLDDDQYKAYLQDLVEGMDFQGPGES
Under “fitted relative affinity”, `TTAGCTTTCGGGTTTCGATTAGTGCTA` is recorded as 3.3 z-score.
Under “fitted relative affinity”, `GGTGTAAGGAACTGAAGTGAGTGCTAG` is recorded as -0.548 z-score.
For `TATGTTCACTATTTAAGGCCGTGCTAG`, “fitted relative affinity” read 0.921 z-score.
Under “fitted relative affinity”, `GACGAACTGAGTCTCGTGACGTGCTAG` is recorded as -0.428 z-score.
Under “fitted relative affinity”, `CCGGGGGGCACAGGGTGAGGGTGCTAG` is recorded as 0.231 z-score.
For `TCAGTGCTCATCTGTCATACTGTGCTA`, “fitted relative affinity” read 0.23 z-score.
`GACTATTTCAGTATCGAGACGTGCTAG`: “fitted relative affinity” 1.79 z-score.
Under “fitted relative affinity”, `TCATCTTTCACTGGTCCTACTGTGCTA` is recorded as 1.12 z-score.

Set 3
Target: RING finger protein unkempt homolog, zinc fingers 1-6, GST-SBP tag (UNK, Homo sapiens, UniProt Q9C0B0, residues 30-357)
UniProt Q9C0B0, sequence (30-357, looked up): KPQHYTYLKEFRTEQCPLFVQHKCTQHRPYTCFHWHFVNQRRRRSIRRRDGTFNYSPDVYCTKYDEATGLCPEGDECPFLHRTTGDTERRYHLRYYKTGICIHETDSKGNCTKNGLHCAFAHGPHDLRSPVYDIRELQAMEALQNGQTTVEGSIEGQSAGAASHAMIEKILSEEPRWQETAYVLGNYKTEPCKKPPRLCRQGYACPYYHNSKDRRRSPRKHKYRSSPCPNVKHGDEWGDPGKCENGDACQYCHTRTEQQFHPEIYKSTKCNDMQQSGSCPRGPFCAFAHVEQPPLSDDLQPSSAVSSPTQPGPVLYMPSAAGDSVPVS
Technique: RNA Bind-n-Seq
Molecule type: RNA
Sample: in vitro
Concentration: not given
Setting: RNA with constant flanks, human and mouse sites, ends assumed
Baseline: input RNA pool
Reading: higher = stronger binding
With `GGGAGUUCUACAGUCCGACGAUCUCUUUUUACACAGUUAAGUUUUGUGUUAACCAUUUACUAAUUUGCUUCUCUGAUUUUUGUGGUUAGAAGGGCCAAUUUCUUUUAAUGACCACAAGCUAACAUAUUAGCAACAGGUUAAAGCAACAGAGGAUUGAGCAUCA` the bound/input enrichment was 0.249 ratio.
For `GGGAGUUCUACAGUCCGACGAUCGGGCAUAUACAGCUUAUAAUUCCUGGAGAAUCUGCUUGUUUUGCGUGUGCUCCACCACUUGUAGUUGCUGCAAAUAUUGAUGAAAAGACUCUGAAACGAGAAGGUGUUUGUGCAGCCAGUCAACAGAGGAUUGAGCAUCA`, the bound/input enrichment was 0.363 ratio.
With `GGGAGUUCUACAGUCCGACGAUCCCAUCACAAAGAACCAAUGGCUCGUAACACCCAGCAGGGAAUAUGCUACCAAGACAAGAAUUAGGACUCACCGUGGGAAAACUGGACAAGAACUGAAAGAGGCAGCCUUGGAACCAUCAACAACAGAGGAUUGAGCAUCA` the bound/input enrichment was 0.307 ratio.
For `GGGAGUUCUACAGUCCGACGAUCGCGUUCGCGGGGCCGAGGCCAUGGCUUUCUGGGCGGGGGGUUCGCCCAGCGUCGUGGACUAUUUCCCUAGCGAGGACUUCUACCGCUGCGGCUACUGCAAGAACGAGUCGGGCAGCCGCUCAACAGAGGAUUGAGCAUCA`, the bound/input enrichment was 0.238 ratio.
`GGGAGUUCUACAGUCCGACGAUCCUGAGAUUAUAUGAAGCAGUUAUUGAUGCUAAGAAACUUUUAUCUGAGCUUUCUAACCCUGAAAUUUCUAAAUAUGUUGGUGAAGUCUUUAACAUCGUCAGUCAACAAUCAACAGCCAGGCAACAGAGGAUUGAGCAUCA` gave a bound/input enrichment of 0.319 ratio.
The bound/input enrichment of `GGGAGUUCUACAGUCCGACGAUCACCACAAGUGCCACCACCUACCCCACCCCCGGUGGCCGCUGUUCCUCCAACUCCCCAGCCUUUAGCUCCUACACCUUCAGCACCCUGCCCAGCUACUCCUGCUGGACCAAAGGGAAGGGUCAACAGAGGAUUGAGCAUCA` is reported as 0.274 ratio.
With `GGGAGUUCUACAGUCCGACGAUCAAGGUUACUUCAAAUCUUGAGAAGAUCCAUCUAGGCUAUCAUAAAGAUUCUUCAGAAGGAAAUGUUGCAGUGGAGUGUGACCAAGUGACCUAUACUCAUUCUGCAGGAAGACCAACUCCUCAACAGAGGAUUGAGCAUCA` the bound/input enrichment was 0.165 ratio.
The bound/input enrichment of `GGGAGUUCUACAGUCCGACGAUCUGGAAGCGACUGUGUCAGUACCACUUUGCUGAGCAGCAGUUUUGUAGACAUUUGAUCCUUUCAGAAAAAGGUCAUAUCGAGUGGAAGCUGAUGUAUUUCACGCUUCAGAAGUAUUACCCGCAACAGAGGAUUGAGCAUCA` is reported as 0.122 ratio.

Mixed results
The inhibition of `O=C(NNS(=O)(=O)c1ccccc1F)c1cc(F)cc(-c2ccccn2)c1` is reported as 16% (5-hydroxytryptamine receptor 1A (HTR1A, Homo sapiens, UniProt P08908); cell-free assay; 10 µM).

For quick reference, copied from above (set 2):
`GACTATTTCAGTATCGAGACGTGCTAG`: “fitted relative affinity” 1.79 z-score.
Under “fitted relative affinity”, `CCGGGGGGCACAGGGTGAGGGTGCTAG` is recorded as 0.231 z-score.
For `TCAGTGCTCATCTGTCATACTGTGCTA`, “fitted relative affinity” read 0.23 z-score.
Under “fitted relative affinity”, `GGTGTAAGGAACTGAAGTGAGTGCTAG` is recorded as -0.548 z-score.
